Published values collected from several papers.
Lines come from different studies, so protocols differ. Converted amounts (≈) assume the structure as drawn.
LATS1: Serine/threonine-protein kinase LATS1 (LATS1, Homo sapiens, UniProt O95835)
Chain of UniProt O95835 (whole entry, looked up): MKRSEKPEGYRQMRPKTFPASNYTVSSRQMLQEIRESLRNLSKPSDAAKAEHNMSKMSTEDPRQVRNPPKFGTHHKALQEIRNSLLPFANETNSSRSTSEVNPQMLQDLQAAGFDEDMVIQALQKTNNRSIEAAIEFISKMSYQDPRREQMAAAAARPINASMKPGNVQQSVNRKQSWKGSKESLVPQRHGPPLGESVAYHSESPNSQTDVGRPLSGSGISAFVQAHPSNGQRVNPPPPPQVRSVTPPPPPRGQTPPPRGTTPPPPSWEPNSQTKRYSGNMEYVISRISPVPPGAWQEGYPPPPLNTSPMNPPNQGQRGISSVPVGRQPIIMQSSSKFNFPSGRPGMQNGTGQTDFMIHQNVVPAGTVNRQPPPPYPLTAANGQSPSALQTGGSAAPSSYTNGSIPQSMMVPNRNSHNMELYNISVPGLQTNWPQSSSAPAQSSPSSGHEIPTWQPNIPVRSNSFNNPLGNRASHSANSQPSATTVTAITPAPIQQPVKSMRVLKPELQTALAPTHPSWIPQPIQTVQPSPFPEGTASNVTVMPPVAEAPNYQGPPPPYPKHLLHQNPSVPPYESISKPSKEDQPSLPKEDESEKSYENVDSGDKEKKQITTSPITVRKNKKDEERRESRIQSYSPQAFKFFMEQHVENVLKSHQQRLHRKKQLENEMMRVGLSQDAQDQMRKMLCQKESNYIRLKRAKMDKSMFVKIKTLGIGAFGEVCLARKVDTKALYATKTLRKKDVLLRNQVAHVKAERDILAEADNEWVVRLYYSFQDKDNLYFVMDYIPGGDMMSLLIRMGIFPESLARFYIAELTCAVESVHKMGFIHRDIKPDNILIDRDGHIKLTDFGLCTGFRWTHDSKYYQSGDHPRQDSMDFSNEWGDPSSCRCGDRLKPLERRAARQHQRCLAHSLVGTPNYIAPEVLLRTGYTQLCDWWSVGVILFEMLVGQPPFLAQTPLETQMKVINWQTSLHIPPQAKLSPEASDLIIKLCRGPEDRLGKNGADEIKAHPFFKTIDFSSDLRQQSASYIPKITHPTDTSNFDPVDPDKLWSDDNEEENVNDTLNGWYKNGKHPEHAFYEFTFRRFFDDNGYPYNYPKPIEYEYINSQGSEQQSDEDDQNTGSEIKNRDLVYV
4'-phosphopantetheinyl transferase PptT: 4'-phosphopantetheinyl transferase PptT (Mycobacterium tuberculosis, UniProt O33336)
Chain of UniProt O33336 (whole entry, looked up): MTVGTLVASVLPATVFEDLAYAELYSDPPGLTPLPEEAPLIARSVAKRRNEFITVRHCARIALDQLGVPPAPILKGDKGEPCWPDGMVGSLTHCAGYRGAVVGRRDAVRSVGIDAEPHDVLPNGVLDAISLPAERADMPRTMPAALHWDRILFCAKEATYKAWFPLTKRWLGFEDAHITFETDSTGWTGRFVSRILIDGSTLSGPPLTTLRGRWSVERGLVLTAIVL
Chain of UniProt Q86Y07 (whole entry, looked up): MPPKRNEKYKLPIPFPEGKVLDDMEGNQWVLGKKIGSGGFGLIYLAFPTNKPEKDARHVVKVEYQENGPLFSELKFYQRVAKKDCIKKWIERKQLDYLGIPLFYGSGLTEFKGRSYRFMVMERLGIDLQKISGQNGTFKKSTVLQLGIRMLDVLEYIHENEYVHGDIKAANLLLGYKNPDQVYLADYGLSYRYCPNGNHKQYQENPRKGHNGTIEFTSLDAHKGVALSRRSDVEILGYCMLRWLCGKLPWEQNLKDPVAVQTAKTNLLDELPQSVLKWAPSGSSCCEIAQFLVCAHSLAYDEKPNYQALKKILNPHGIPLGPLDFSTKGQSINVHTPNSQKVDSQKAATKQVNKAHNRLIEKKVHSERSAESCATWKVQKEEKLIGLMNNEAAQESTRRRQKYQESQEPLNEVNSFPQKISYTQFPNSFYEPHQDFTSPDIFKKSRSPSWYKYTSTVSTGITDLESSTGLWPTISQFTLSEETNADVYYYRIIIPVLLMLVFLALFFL
Chain of UniProt P36894 (whole entry, looked up): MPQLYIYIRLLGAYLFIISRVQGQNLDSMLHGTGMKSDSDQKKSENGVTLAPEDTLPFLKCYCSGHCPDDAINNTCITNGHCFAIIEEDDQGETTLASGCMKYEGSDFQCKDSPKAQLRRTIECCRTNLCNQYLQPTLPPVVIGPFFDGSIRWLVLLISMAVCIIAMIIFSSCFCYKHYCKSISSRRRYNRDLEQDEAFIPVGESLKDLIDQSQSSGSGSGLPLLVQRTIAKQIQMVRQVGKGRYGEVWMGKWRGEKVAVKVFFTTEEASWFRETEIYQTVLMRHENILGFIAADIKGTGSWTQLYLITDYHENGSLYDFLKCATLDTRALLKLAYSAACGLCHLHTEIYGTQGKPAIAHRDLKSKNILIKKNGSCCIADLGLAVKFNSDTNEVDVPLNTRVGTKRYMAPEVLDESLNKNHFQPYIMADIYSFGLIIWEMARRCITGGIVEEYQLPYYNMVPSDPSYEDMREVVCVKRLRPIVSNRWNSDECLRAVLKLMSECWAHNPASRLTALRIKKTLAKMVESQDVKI

| Structure (SMILES) | target or system | test | test system | conditions | endpoint | result |
| --- | --- | --- | --- | --- | --- | --- |
| Oc1c(Cl)cc(Cl)cc1-c1[nH]c(Cl)c(Cl)c1Cl | Salmonella enterica | microbial growth | ATCC13311 | – | MIC | 10.7 µM |
| O=C(NNc1cc(F)ccc1F)c1nnc(CC23CC4CC(CC(C4)C2)C3)o1 | Fusarium oxysporum | microbial growth | – | – | EC50 | 6.83 mg/L (≈ 17.6 µM) |
| COC(=O)c1cc(-c2cccc(NC(=O)Nc3cc(Cl)ccc3Cl)c2)on1 | Mycobacteroides abscessus | microbial growth, broth dilution | ATCC19977 | 48 h | MIC | > 64 mg/L |
| C[C@@H](O)[C@@H]1NC(=O)[C@@H](CCCCN)NC(=O)[C@H](CCCN)NC(=O)[C@@H](CCCN)NC(=O)[C@H](CO)NC(=O)[C@H](Cc2c[nH]c3ccccc23)NC(=O)[C@@H](Cc2c[nH]c3ccccc23)NC1=O | Balamuthia mandrillaris | parasite growth, ATP luminescence | – | – | IC50 | > 16 mg/L |
| COC(=O)c1cc(-c2cccc(NC(=S)Nc3ccccc3Cl)c2)on1 | Mycobacteroides abscessus | microbial growth, broth dilution | ATCC19977 | 48 h | MIC | > 64 mg/L |
| Oc1c(Br)cc(Br)cc1-c1[nH]c(Br)c(Br)c1Br | Enterococcus faecalis | microbial growth | ATCC29212 | – | MIC | 32 µM |
| CO/C=C(/C(=O)OC)c1ccccc1Oc1cc(Oc2ccccc2C#N)ncn1 | Fusarium oxysporum | microbial growth | – | – | EC50 | > 50 mg/L |
| CC(C)[C@@H]1NC(=O)[C@@H](CCCCN)NC(=O)[C@H]([C@@H](C)O)NC(=O)[C@@H](CCCCN)NC(=O)[C@H](Cc2c[nH]c3ccccc23)NC(=O)[C@@H](C)NC(=O)[C@@H](C(C)C)NC(=O)[C@@H](C)NC(=O)[C@H](Cc2c[nH]c3ccccc23)NC(=O)[C@@H](Cc2c[nH]c3ccccc23)NC1=O | Balamuthia mandrillaris | parasite growth, ATP luminescence | – | – | IC50 | 7.82 mg/L |
| [2H]c1c([2H])c([C@]2([2H])CCCN2C(=O)C(C)(C)Oc2ccc3cn[nH]c3c2)c([2H])c([2H])c1C([2H])([2H])[2H] | VRK2 (Homo sapiens, UniProt Q86Y07) | binding, competition with immobilised ligand | – | 1 µM | remaining binding | 92% |
| NCCCC[C@H]1NC(=O)[C@H](Cc2ccccc2)NC(=O)[C@H](Cc2c[nH]c3ccccc23)NC(=O)[C@@H](Cc2ccccc2)NC(=O)[C@H](Cc2ccccc2)NC(=O)[C@@H](CCCN)NC(=O)[C@H](CCCN)NC1=O | Balamuthia mandrillaris | parasite growth, ATP luminescence | – | – | IC90 | 9.92 mg/L (≈ 10.1 µM) |
| O=c1ccc2nc3ccc(OCc4ccc([N+](=O)[O-])o4)cc3oc-2c1 | Serratia marcescens | microbial growth | – | 24 h | MIC | > 32 mg/L |
| COC(=O)c1cc(-c2cccc(NC(=S)Nc3ccc(Cl)cc3)c2)on1 | Acinetobacter baumannii | microbial growth, broth dilution | BAA1605 | – | MIC | > 64 mg/L |
| C[C@@H]1[C@H](O)[C@@H](C)/C=C/C=C/C=C/C=C/C=C/C=C/C=C/[C@H](O[C@@H]2O[C@H](C)[C@@H](O)[C@H](N)[C@@H]2O)C[C@@H]2O[C@](O)(C[C@@H](O)C[C@@H](O)[C@H](O)CC[C@@H](O)C[C@@H](O)CC(=O)O[C@H]1C)C[C@H](O)[C@H]2C(=O)O | Leishmania donovani | parasite growth | – | amastigote | IC90 | 0.36 mg/L (≈ 0.39 µM) |
| C#Cc1ccc(C=NNC(=O)c2ccc(COC)cc2)c(O)c1 | Aspergillus fumigatus | microbial growth | – | 48 h, pH 6.5 | MIC80 | 1 mg/L (≈ 3.24 µM) |
| COC(=O)c1cc(-c2cccc(NC(=S)Nc3cc(C(F)(F)F)cc(C(F)(F)F)c3)c2)on1 | Mycobacteroides abscessus | microbial growth, broth dilution | ATCC19977 | 48 h | MIC | > 64 mg/L |
| CC(C)[C@@H]1NC(=O)[C@@H](CCCCN)NC(=O)[C@H](CCCCN)NC(=O)[C@@H](CCCN)NC(=O)[C@H](C)NC(=O)[C@H](Cc2c[nH]c3ccccc23)NC(=O)[C@@H](Cc2ccccc2)NC1=O | Balamuthia mandrillaris | parasite growth, ATP luminescence | – | – | IC50 | > 16 mg/L |
| Nc1ncnc2c([C@@H]3N[C@H](CO)[C@@H](O)[C@H]3O)c[nH]c12 | human respiratory syncytial virus | viral replication, inhibitor | MA104 | 0.3 µM | inhibition | 2.5% |
| Cc1nn(C)cc1-c1nc2c(N3CCN(Cc4ccc(Cl)cc4)CC3)c(Cl)cnc2[nH]1 | LATS1 | binding, competition with immobilised ligand | – | 1 µM | remaining binding | 89% |
| C[C@H]1NC(=O)[C@H](Cc2c[nH]c3ccccc23)NC(=O)[C@@H](Cc2ccccc2)NC(=O)[C@@H](CCCN)NC(=O)[C@H]([C@@H](C)O)NC(=O)[C@@H](CCCN)NC(=O)[C@H](Cc2c[nH]c3ccccc23)NC(=O)[C@@H](C)NC1=O | Balamuthia mandrillaris | parasite growth, ATP luminescence | – | – | IC50 | > 16 mg/L |

| Structure (SMILES) | target or system | test | test system | conditions | endpoint | result |
| --- | --- | --- | --- | --- | --- | --- |
| O=C(NNc1cccc(Cl)c1)c1nnc(C23CC4CC(CC(C4)C2)C3)o1 | Sclerotinia sclerotiorum | microbial growth | – | 50 µg/mL | inhibition | 46.8% |
| CC(C)[C@@H]1NC(=O)[C@@H](CCCCN)NC(=O)[C@H](CCCN)NC(=O)[C@@H](CCCN)NC(=O)[C@H](C)NC(=O)[C@H](Cc2c[nH]c3ccccc23)NC(=O)[C@@H](Cc2ccccc2)NC1=O | Balamuthia mandrillaris | parasite growth, ATP luminescence | – | – | IC90 | > 16 mg/L |
| COC(=O)c1cc(-c2cccc(NC(=O)Nc3ccc(F)cc3F)c2)on1 | Acinetobacter baumannii | microbial growth, broth dilution | BAA1605 | – | MIC | > 64 mg/L |
| COc1ncccc1-c1cnn2ccc(N3CCN(C(=O)OC(C)C)CC3)nc12 | LATS1 | binding, competition with immobilised ligand | – | 1 µM | remaining binding | 100% |
| O=C(NNc1ccc(F)c(F)c1)c1nnc(C23CC4CC(CC(C4)C2)C3)o1 | Fusarium oxysporum | microbial growth | – | 50 µg/mL | inhibition | 100% |
| CC(C)C[C@H]1NC(=O)[C@H]([C@@H](C)O)NC(=O)[C@@H](CCCN)NC(=O)[C@H](CCCNC(=N)N)NC(=O)[C@@H](Cc2ccccc2)NC1=O | Balamuthia mandrillaris | parasite growth, ATP luminescence | – | – | IC90 | > 16 mg/L |
| CC(=O)N1CCN(c2ccc(OCC3COC(Cn4ccnc4)(c4ccc(Cl)cc4Cl)O3)cc2)CC1 (centres unmarked) | Candida albicans | microbial killing, broth dilution | 56214 | 48 h | MFC | > 64 µM |
| O=C(NNc1ccc(F)c(F)c1)c1nnc(CC23CC4CC(CC(C4)C2)C3)o1 | Sclerotinia sclerotiorum | microbial growth | – | 50 µg/mL | inhibition | 100% |
| Nc1ncc(-c2nc(N3CCOCC3)nc(N3CCOCC3)n2)c(C(F)F)n1 | BMPR1A (Homo sapiens, UniProt P36894) | binding, competition with immobilised ligand | – | 10 µM | remaining binding | 93% |
| COC(=O)c1cc(-c2cccc(NC(=O)Nc3cccc(C#N)c3)c2)on1 | Mycobacteroides abscessus | microbial growth, broth dilution | ATCC19977 | 48 h | MIC | > 64 mg/L |
| O=C(NNc1ccc(Cl)cc1)c1nnc(C23CC4CC(CC(C4)C2)C3)o1 | Sclerotinia sclerotiorum | microbial growth | – | 50 µg/mL | inhibition | 100% |
| COCC(=O)OCc1cc2[nH]c(=S)n(Cc3cccnc3)c(=O)c2cc1Cl | 4'-phosphopantetheinyl transferase PptT | enzyme activity, inhibitor, FP | – | – | IC50 | 6.86 µM |
| C#Cc1ccc(C=NNC(=O)c2ccc(Br)cc2Br)c(O)c1 | Aspergillus fumigatus | microbial growth | – | 48 h, pH 6.5 | MIC80 | ≤ 0.5 mg/L |
| Cc1ccc(Cn2c(=S)[nH]c3ccc(Cl)cc3c2=O)cn1 | 4'-phosphopantetheinyl transferase PptT | enzyme activity, inhibitor, FP | – | – | IC50 | 1.26 µM |
| COC(=O)c1cc(-c2cccc(NC(=O)Nc3cccc(Br)c3)c2)on1 | Mycobacteroides abscessus | microbial growth, broth dilution | ATCC19977 | 48 h | MIC | > 64 mg/L |
| NCCCC[C@@H]1NC(=O)[C@@H](CCCCN)NC(=O)[C@H](CO)NC(=O)[C@H](Cc2c[nH]c3ccccc23)NC(=O)[C@@H](Cc2c[nH]c3ccccc23)NC(=O)[C@H](Cc2ccccc2)NC(=O)[C@@H](CCCCN)NC1=O | Balamuthia mandrillaris | parasite growth, ATP luminescence | – | – | IC50 | > 16 mg/L |
| COC(=O)c1cc(-c2cccc(NC(=S)Nc3ccc(F)c(Cl)c3)c2)on1 | Acinetobacter baumannii | microbial growth, broth dilution | BAA1605 | – | MIC | > 64 mg/L |
| C#Cc1ccc(C=NNC(=O)c2ccc(Br)cc2)c(O)c1 | Aspergillus fumigatus | microbial growth | – | 48 h, pH 6.5 | MIC80 | > 16 mg/L |
| COc1c([N+](=O)[O-])oc2ccc3ccccc3c12 | Mycolicibacterium smegmatis | microbial growth, resazurin | MC^2155 | – | MIC90 | > 32 mg/L |

Some of these lines once more:
| Structure (SMILES) | target or system | test | test system | conditions | endpoint | result |
| --- | --- | --- | --- | --- | --- | --- |
| COCC(=O)OCc1cc2[nH]c(=S)n(Cc3cccnc3)c(=O)c2cc1Cl | 4'-phosphopantetheinyl transferase PptT | enzyme activity, inhibitor, FP | – | – | IC50 | 6.86 µM |
| C#Cc1ccc(C=NNC(=O)c2ccc(Br)cc2Br)c(O)c1 | Aspergillus fumigatus | microbial growth | – | 48 h, pH 6.5 | MIC80 | ≤ 0.5 mg/L |
